Measurements pooled from the literature.
Each line is one published result; not all experiments were run side by side. Values joined by “and” are separate records of one study, mostly repeats; a detail may differ. Numbers after ± are the reported error.

Cn1cc(-c2ccc(-c3cncc(Cl)c3N3CCC4(CCNC4=O)CC3)cc2)cn1 — log2 fold change (COLO 205; gene expression, microarray, measured: HOXA4 mRNA; concentration not given, 2 h; baseline: untreated cells): 2.26
CCN(CC)Cc1ccc2cc(COC(=O)Nc3ccc(C(=O)NO)cc3)ccc2c1 — inhibition (BT-16; cell viability, MTT; 10 µM, 72 h): 93.6%
CCN(CCO)CCCC(C)Nc1ccnc2cc(Cl)ccc12 (stereo not drawn) — inhibition (human PBMC; qRT-PCR, measured: IFI44 mRNA; 1000 nM, together with: ssRNA): 4 ± 19%
Cc1cccc(-c2[nH]c(CNc3ccccc3F)nc2-c2ccc3ncnn3c2)n1 — surface marker level (RPMI-8226; flow cytometry, measured: CD61; concentration not given; baseline: comparator compound alone): 58.3%
C=CC(=O)Nc1cc(Nc2nccc(-c3cn(C)c4ccccc34)n2)c(OC)cc1N(C)CCN(C)C — mRNA level (PC-9; qRT-PCR, measured: mTOR; 8 µM, 24 h; baseline: control): ~466 fold
CCc1cnc(N2CCC(c3nc(COc4ccc(-n5cnnn5)cc4)cs3)CC2)nc1 — normalized enrichment score (HEK-293T; RNA-seq GSEA, measured: HALLMARK_ESTROGEN_RESPONSE_LATE; concentration not given; direction not given): -1.08
O=C([O-])c1ccccc1O.[Na+] — osteoclastogenesis (mouse bone marrow macrophages; 3 mM, mean, together with: RANKL and, tet-CR4-WHD; baseline: RANKL alone): 40.1%
Cc1cc(Nc2ncc(Cl)c(Nc3ccccc3S(=O)(=O)C(C)C)n2)c(OC(C)C)cc1C1CCNCC1 — log2 fold change (CLB-GE; phosphoproteomics LC-MS/MS, measured: AP2B1 phosphorylation; 200 nM, 60 min; baseline: untreated): -2.26
O=C(CCCCCN1C(=O)c2cccc3cccc(c23)C1=O)NO — inhibition (BT-16; cell viability, MTT; 10 µM, 72 h): 83.1%
CNCCC=C1c2ccccc2CCc2ccccc21 — activity (HepG2-C8; ARE reporter gene; concentration not given, 24 h): active
COC1=CC(c2cc3ccccc3[nH]2)=N/C1=C\c1[nH]c(C)cc1C — inhibition (BT-16; cell viability, MTT; 10 µM, 72 h): 93%
Nc1ncnc2c1ncn2[C@@H]1O[C@H](CO)[C@@H](O)[C@H]1O — viability (unstimulated human T cells; 1 µM, 72 h; higher = more viable cells): 84.8 a.u. and 77.4 a.u. and 83.1 a.u.
O=C(Nc1c[nH]nc1-c1nc2ccc(CN3CCOCC3)cc2[nH]1)NC1CC1 — inhibition (BT-16; cell viability, MTT; 10 µM, 72 h): 95.6%
CCn1cc(-c2cc(Cn3ccnc3)cc3c2CCN([C@H](c2cc(OC)ccn2)C2CC2)C3=O)c(C(F)(F)F)n1 — EC50 (NCI-H441; cell growth, inhibitor; 120 h): 14.5 µM
O=C(/C=C/C=C/C=C/C1CCCCC1)NC1=C[C@@](O)(/C=C/C=C/C=C/C(=O)NC2=C(O)CCC2=O)[C@@H]2O[C@@H]2C1=O — GI50 (snu81; cell growth, inhibitor, CellTiter-Glo luminescence; 78 h; baseline: day 0 cell count): > 30 µM
CSc1cc(Oc2ccnc3[nH]c(=O)cnc23)ccc1NC(=O)Nc1cc(C(C)(C)C)nn1-c1ccccc1 — phospho-Src family Tyr416/total ratio (patient-derived cell line clone B; RPPA; 1 µM, 4 h; baseline: DMSO): 0.23
CCCCN1C[C@H](O)[C@@H](O)[C@@H](O)[C@H]1CO — IC50 (sample BA patient fibroblasts; Gb3 level lowering, LC-MS/MS, measured: Gb3 d18:1/22:0; 216 h): 32.5 µM
C[C@H]1[C@@H](O)O[C@@H]2O[C@@]3(C)CC[C@H]4[C@H](C)CC[C@@H]1[C@@]24OO3 — early apoptotic cells (THP-1; annexin V/PI flow cytometry, measured: annexin V+/PI-; 3.2 µM, 24 h): 2.5%
CC(=O)O[C@H]1C(=O)[C@@]2(C)[C@H]([C@H](OC(=O)c3ccccc3)[C@]3(O)C[C@H](OC(=O)[C@H](O)[C@@H](NC(=O)c4ccccc4)c4ccccc4)C(C)=C1C3(C)C)[C@]1(OC(C)=O)CO[C@@H]1C[C@@H]2O — TGI (HL-60(TB)): 0.03 µM
COc1cnc2cccc(N3CCc4c(cc(Cn5ccnc5C)cc4-c4cn(C)nc4C(F)(F)F)C3=O)c2c1 — EC50 (SH-10-TC; cell growth, inhibitor; 120 h): 0.853 µM
C[C@H](Nc1ccc2c(c1)OCCn1cc(N3C(=O)OC[C@H]3C(F)F)nc1-2)C(N)=O — Hill coefficient GR curve (BFTC-909; cell growth, CellTiter-Glo; 120 h): 1.3

For quick reference, copied from above:
Cn1cc(-c2ccc(-c3cncc(Cl)c3N3CCC4(CCNC4=O)CC3)cc2)cn1 — log2 fold change (COLO 205; gene expression, microarray, measured: HOXA4 mRNA; concentration not given, 2 h; baseline: untreated cells): 2.26
